Results collected from several papers.
Each numbered part is a random draw from the data of one study; scales do not carry over between parts. Changes are numbered by the printed parent chain.

Block 1
Target: vanadate, free oxyanion
Method: microfluidic competitive inhibition
Sample: in vitro, cell-free expressed
Concentration: not given
Notes: derived from inhibition constants, unchanged parent 676 nM
Direction: lower = stronger binding
Endpoint: oxyanion analog dissociation constant
Parent: PafA, mature enzyme, eGFP fusion (Elizabethkingia meningoseptica, UniProt Q9KJX5); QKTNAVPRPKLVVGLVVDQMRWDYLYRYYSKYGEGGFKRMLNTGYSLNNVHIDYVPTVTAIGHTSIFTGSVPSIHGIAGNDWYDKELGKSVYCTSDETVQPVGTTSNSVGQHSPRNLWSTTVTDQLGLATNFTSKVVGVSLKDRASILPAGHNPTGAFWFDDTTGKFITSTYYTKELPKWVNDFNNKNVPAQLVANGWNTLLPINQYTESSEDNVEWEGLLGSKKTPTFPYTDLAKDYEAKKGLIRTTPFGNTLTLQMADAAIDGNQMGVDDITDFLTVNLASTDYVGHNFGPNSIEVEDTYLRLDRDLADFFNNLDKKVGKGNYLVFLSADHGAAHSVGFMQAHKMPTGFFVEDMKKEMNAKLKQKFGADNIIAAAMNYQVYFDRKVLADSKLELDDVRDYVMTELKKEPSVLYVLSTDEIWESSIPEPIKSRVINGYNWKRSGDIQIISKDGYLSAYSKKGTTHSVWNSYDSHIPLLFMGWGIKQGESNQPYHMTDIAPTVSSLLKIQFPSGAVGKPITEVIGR
Substitution = V279G; result = 4.07 µM
Substitution = V58A; result = 5.74 µM
Substitution = M356V; result = 0.777 µM
Substitution = A370G; result = 0.689 µM
Substitution = E406V; result = 0.738 µM
Substitution = V403G; result = 0.973 µM
Substitution = F341V; result = 0.716 µM
Substitution = M40V; result = 0.643 µM
Substitution = N324V; result = 0.863 µM
Substitution = G165V; result = 1.59 µM
Substitution = D398G; result = 0.642 µM
Substitution = L329G; result = 1.77 µM
Substitution = T130G; result = 0.819 µM
Substitution = S471V; result = 0.848 µM
Substitution = P519V; result = 0.859 µM
Substitution = I273G; result = 0.898 µM
Substitution = A259G; result = 0.807 µM
Substitution = K486V; result = 0.717 µM
Substitution = G525A; result = 0.687 µM
Substitution = S146G; result = 1.15 µM
Substitution = G44A; result = 1.36 µM
Substitution = A377G; result = 0.511 µM
Substitution = I509G; result = 0.726 µM
Substitution = Y54G; result = 0.875 µM
Substitution = A282G; result = 3.12 µM

Block 2
Target: UDP-N-acetylglucosamine--peptide N-acetylglucosaminyltransferase 110 kDa subunit (OGT, Homo sapiens, UniProt O15294)
Effect on: binding
Method: phage display NGS
Molecule type: peptide
Concentration: concentration not given
Notes: panning round 4
Reference: input library
Endpoint: enrichment fold change
Target sequence (O15294 1-1046): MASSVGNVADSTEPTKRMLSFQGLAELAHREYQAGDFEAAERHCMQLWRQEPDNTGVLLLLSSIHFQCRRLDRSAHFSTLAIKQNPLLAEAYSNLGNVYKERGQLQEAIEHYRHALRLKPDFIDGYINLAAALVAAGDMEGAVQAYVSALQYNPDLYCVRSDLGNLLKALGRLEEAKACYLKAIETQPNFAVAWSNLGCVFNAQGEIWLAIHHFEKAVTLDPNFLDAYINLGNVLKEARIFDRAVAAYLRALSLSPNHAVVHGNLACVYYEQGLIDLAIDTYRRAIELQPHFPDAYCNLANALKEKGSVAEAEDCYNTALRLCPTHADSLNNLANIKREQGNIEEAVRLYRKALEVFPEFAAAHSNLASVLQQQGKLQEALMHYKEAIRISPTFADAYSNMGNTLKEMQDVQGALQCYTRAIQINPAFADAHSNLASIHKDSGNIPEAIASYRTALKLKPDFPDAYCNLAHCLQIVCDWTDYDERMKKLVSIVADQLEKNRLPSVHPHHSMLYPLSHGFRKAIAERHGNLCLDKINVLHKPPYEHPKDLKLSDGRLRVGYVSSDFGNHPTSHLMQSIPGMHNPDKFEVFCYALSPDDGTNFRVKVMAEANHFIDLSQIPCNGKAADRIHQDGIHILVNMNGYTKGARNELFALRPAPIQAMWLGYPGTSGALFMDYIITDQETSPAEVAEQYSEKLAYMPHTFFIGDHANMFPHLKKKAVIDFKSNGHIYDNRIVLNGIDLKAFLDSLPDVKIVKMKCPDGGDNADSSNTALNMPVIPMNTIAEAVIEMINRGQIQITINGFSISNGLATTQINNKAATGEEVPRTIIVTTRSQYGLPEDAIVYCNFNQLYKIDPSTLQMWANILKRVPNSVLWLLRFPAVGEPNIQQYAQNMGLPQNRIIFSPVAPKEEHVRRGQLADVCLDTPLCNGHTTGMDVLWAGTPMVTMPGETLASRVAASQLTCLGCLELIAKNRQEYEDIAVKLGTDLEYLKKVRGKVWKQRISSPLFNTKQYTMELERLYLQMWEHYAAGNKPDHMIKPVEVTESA
Molecule = VAYPNSYMPKYQIST; result = 1.53
Molecule = NVVRTNFMPMYLIEI; result = 1.84
Molecule = QDFKPMYQIKIRSHA; result = 2.36
Molecule = DRLFLPAYQIQVFK; result = 1.89

Block 3
Target: ABI1, truncated, D143A, DHFR fusion (Arabidopsis thaliana)
Method: DHFR PCA, deep sequencing
Sample: yeast
Notes: methotrexate growth selection, single substitutions
With: (+)-ABA 58 µM
Reference: wild-type fitted maximum
Direction: higher = stronger binding
Endpoint: relative binding score
Parent: PYL1, truncated, DHFR fusion (Arabidopsis thaliana); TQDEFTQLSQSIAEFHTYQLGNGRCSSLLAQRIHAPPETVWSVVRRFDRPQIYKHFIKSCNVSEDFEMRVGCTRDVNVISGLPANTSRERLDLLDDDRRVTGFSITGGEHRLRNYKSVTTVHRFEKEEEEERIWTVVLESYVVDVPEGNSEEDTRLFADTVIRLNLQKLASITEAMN
Substitution = R90C; result = 70%
Substitution = G71M; result = 12.1%
Substitution = N61P; result = 30.6%
Substitution = G108E; result = 5.83%
Substitution = M68V; result = 80.2%
Substitution = T86R; result = 74.4%
Substitution = E127D; result = 93.3%
Substitution = Y53R; result = 33.3%

Block 4
Target: PABPC1L2, full length, GST fusion (mouse, UniProt A0ABA7IW68)
Method: RNAcompete
Molecule type: RNA
Sample: in vitro
Concentration: 20 nM
Notes: 7-mer, probes averaged, single round
Reference: mean of 7-mers
Direction: higher = stronger binding
Endpoint: 7-mer Z-score
Construct (chain): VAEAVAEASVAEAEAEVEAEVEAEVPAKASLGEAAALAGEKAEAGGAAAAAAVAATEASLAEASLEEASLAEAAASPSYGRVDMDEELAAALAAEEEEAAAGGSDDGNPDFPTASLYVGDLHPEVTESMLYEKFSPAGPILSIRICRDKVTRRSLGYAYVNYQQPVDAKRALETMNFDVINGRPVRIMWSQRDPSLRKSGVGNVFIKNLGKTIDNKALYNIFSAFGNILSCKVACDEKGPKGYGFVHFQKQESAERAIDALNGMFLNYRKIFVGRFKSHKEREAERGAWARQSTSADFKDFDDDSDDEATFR
Strand = AAGAAGC; result = 0.546
Strand = AACGGUC; result = 0.017
Strand = GGUAUAA; result = 0.269
Strand = AGCACCA; result = -0.0192
Strand = GUGUUCG; result = -0.467
Strand = CUAUCUC; result = -0.248
Strand = CAACGAC; result = 0.037
Strand = GAGAGGA; result = 0.354

Block 5
Target: CCNB1, cyclin fold, Cln2 fusion (human)
Method: yeast growth competition, sequencing
Sample: yeast
Notes: weak parent motif
Reference: not given
Direction: higher = stronger binding
Endpoint: normalised enrichment score
Parent: viral docking peptide; PTARRRLLHDLDT
Substitution = R5A R6A L7A L8A; result = 0.0632
Substitution = L11A; result = 0.358
Substitution = R5K L8F; result = 0.72
Substitution = R5A; result = 0.0735
Substitution = L8F; result = 0.55
Substitution = L7A; result = 0.146
Substitution = T13A; result = 0.387
Substitution = D10A; result = 0.121
Substitution = H9F; result = 1.45
Substitution = T2A; result = 0.698

Other studies, line by line
Molecule = PhoQ, residues 284 288 289 292 302 303 MLMVEA; target = PhoP, residues 12 14 15 18 19 LHSVQ (Escherichia coli, UniProt P23836); test = Sort-seq, item: YFP reporter; test system = E. coli; conditions = PhoQ-PhoP variant library, with: 10 µM Mg2+; how to read = reference: high Mg2+ state, higher = stronger signaling; endpoint = fold induction; result = 26.5

For quick reference, copied from above (block 1):
Substitution = I273G; result = 0.898 µM
Substitution = A259G; result = 0.807 µM
Substitution = K486V; result = 0.717 µM
Substitution = G525A; result = 0.687 µM
Substitution = S146G; result = 1.15 µM
Substitution = G44A; result = 1.36 µM
Substitution = A377G; result = 0.511 µM
Substitution = I509G; result = 0.726 µM
Substitution = Y54G; result = 0.875 µM
